Published values of several laboratories.
Protocols differ between the studies behind these lines. Several values in a cell are separate wells, animals, samples, runs or records. ± marks the error that the study gave.

SMILES | target or system | test | system | setting | how to read | measurement | result
O=C(Nc1nc2cccc(-c3ccc(CN4CCS(=O)(=O)CC4)cc3)n2n1)C1CC1 |  | item: joint swelling | human rheumatoid arthritis patients | oral, 200 mg once daily, 4 weeks, regardless of relatedness |  | treatment-emergent adverse events | 8.3%
O=C1CCc2ccc(OCCCCN3CCN(c4cccc(Cl)c4Cl)CC3)cc2N1 |  | item: Xerostomia | genotyped patients, CYP2D6 ultrarapid metabolizers | dose not given, long-acting oral or depot |  | adverse event incidence | 0%
CNCc1ccc(-c2[nH]c3cc(F)cc4c3c2CCNC4=O)cc1 |  |  | human patients | oral, 600 mg twice daily, grade 4 |  | incidence of dyspnoea | 0%
CCN1/C(=C/C(C)=O)Sc2ccc(F)cc21 |  |  | cynomolgus monkey | oral, 30 mg/kg, 1 h post-dose | reference: pre-dose | QTc interval change | 99.7 ± 2%
C=CC(=O)Nc1cc(Nc2nccc(-c3cn(C)c4ccccc34)n2)c(OC)cc1N(C)CCN(C)C |  | storage stability | human dried blood spots | 5 h, on ice, LLOQ level |  | recovery | 90.9%
O=C1CCC(N2Cc3cc(CO)c(F)cc3C2=O)C(=O)N1 (stereo not shown) |  |  | cynomolgus monkey, male | oral, 0.3 mg/kg parent drug, 8 h |  | plasma concentration | 0.1 ng/mL
O=C(O)CCC(=O)O.[2H]C([2H])([2H])Oc1cc(C)c2[nH]ccc2c1CN1CC[C@@H](C2CC2)C[C@H]1c1ccc(C(=O)O)cc1 |  | multiple ascending dose | healthy Chinese subjects | 200 mg once daily |  | subjects with TEAE Eczema | 0%
CCc1nc(C(N)=O)c(Nc2ccc(N3CCC(N4CCN(C)CC4)CC3)c(OC)c2)nc1NC1CCOCC1 |  |  | Japanese patients, plasma | oral, 40 mg, cycle 1 day 28, multiple doses, median | reference: single dose | accumulation ratio (AUC) | 5.48
COCCOCc1ccc(-c2cc3onc(-c4ccccc4)c3c(=O)n2C)cc1 | COS-7 |  |  | 3 µM, 24 h, 0.1% DMSO, unit not given | reference: vehicle control | confluence | 0.95 ± 0.01
CCOc1c([C@H](C)n2nc(C)c3c(N)ncnc32)cc(Cl)c(F)c1[C@@H]1CNC(=O)C1 |  | item: QRS >100 to ≤110 ms | previously treated B-cell malignancy | oral, 30 mg once daily, baseline below thresholds |  | ECG observations | 3.2%
NC1(C(=O)N[C@@H](CCO)c2ccc(Cl)cc2)CCN(c2nc[nH]c3nccc2-3)CC1 |  |  | metastatic CRPC patients | 400 mg b.i.d., any grade, treatment-related, added: enzalutamide 160 mg daily |  | incidence of Leukopenia | 0%
CC(C)(C(=O)N1CCOc2c(C#N)cncc2C1)C(F)F |  | item: phlebitis | human, both sexes | oral, 15 mg twice daily, 14 days, multiple ascending dose |  | subjects with TEAE | 0%
N#Cc1ccc2c(c1)[C@H]1CCCN(C(=O)c3ccc4[nH]cnc4c3)[C@H]1C2 |  |  | human | 240 mg, end of trial | reference: baseline | ACTH level change | -1.4 pmol/L
O=C(c1cccnc1-c1ccncc1)N1CCC(O)(Cc2ccccc2)CC1 |  |  | healthy Japanese adults, plasma | oral, 100 mg twice daily, day 7 |  | AUCtau | 224 ng·h/mL
CC(C)c1nc(CN(C)C(=O)N[C@@H](CCN2CCOCC2)C(=O)N[C@H](CC[C@H](Cc2ccccc2)NC(=O)OCc2cncs2)Cc2ccccc2)cs1 |  | item: visual impairment | human | oral, 150 mg |  | drug-related TEAE incidence | 0%
CO[C@@H]1[C@@H](OC(N)=O)[C@@H](O)[C@H](Oc2ccc3c(O)c(NC(=O)c4ccc(O)c(CC=C(C)C)c4)c(=O)oc3c2C)OC1(C)C |  | starch gel membrane permeability | Gram-negative envelope surrogate | 200 µM, 30 min, pH 7.4 |  | amount permeated | 1.06 nmol
COc1c(O[C@@H]2O[C@H](CO)[C@@H](O)[C@H](O)[C@H]2O)cc2c(c1O)C(=O)c1c(cc(C)c(O)c1OC)C2=O | HepaRG co-cultured with HK-2 | MTT |  | 66.67 µM, 24 h | reference: untreated control | cell viability | 95.1 ± 11.8%
CCO[C@H]1CCN(Cc2c(OC)cc(C)c3[nH]ccc23)[C@H](c2ccc(C(=O)O)cc2)C1 |  |  | human severe hepatic impairment, plasma | oral, 200 mg single dose, geometric mean |  | total AUC(0-inf) | 58000 ng·h/mL
C[C@@H](N)C1CCN(S(=O)(=O)c2cccc3cnccc23)CC1 |  |  | healthy volunteers | 25 mg, fasted |  | participants with TEAEs | 16.7%
O=c1oc2c(O)c(O)cc3c(=O)oc4c(O)c(O)cc1c4c23 |  |  | human plasma | mean, both sexes |  | plasma concentration | 138 nM
CN1CCC[C@H](CN2c3ccccc3Sc3ccccc32)C1.Cl |  |  | Wistar rat female, heart | oral, 16 mg/kg |  | Tmax | 6 h
OC[C@H]1O[C@@H](c2ccc(F)c(Cc3cc4ccccc4s3)c2)[C@H](O)[C@@H](O)[C@@H]1O |  |  | Japanese patients, type 1 diabetes | oral, 25 mg/day, onset day 10 | reference: patients | hypoglycaemia-related adverse event | 5%
CC1CCNc2c(C(=O)NC/C=C/S(C)(=O)=O)cccc21 (stereo not shown) |  |  | uninfected mouse, serum | 300 mg/kg |  | serum AST | 107 U/L and 70 U/L
O=c1ccccc(C2CCCO2)c1O (stereo not shown) |  |  | C57BL/6 mouse male, turpentine inflammation anemia, serum | 50 mg/kg/day, 3 h after last dose |  | serum concentration | 3000 nM
CCc1cc2ncc(CN3CCN(c4ccc(C(=O)NC)nc4)CC3)cc2[nH]c1=O |  |  | male rat, blood | oral, 50 mg/kg/day, 4 weeks | reference: vehicle control | Neutrophils count ratio | 0.56

SMILES | target or system | test | system | setting | how to read | measurement | result
O=C(O)C1=CC(=C(c2ccc(O)c(C(=O)O)c2)c2ccc(O)c(C(=O)O)c2)C=CC1=O |  | ELISA | mouse B16-F10 tumour-bearing, serum | dose not given | reference: vehicle | serum C-reactive protein level | decreased
Cn1nc2c(=O)n(C3CC3)ncc2c1[C@](O)(c1cnc(C(F)(F)F)c(Cl)c1)C(F)(F)F |  |  | rat Sprague-Dawley male, plasma | intravenous, 1 mg/kg |  | CL | 2.76 ± 0.0642 mL/min/kg
COc1cc2c(c(O)c1OC)C(=O)c1c(cc(C)c(O[C@@H]3O[C@H](CO)[C@@H](O)[C@H](O)[C@H]3O)c1OC)C2=O | HepaRG co-cultured with HK-2 | MTT |  | 133.33 µM, 24 h | reference: untreated control | cell viability | 60.2 ± 9%
FC(F)(F)c1ccc(CNc2ccc(Cc3c[nH]c4ncc(Cl)cc34)cn2)cn1 |  | item: Hypophosphataemia | patients with advanced solid tumours | oral, dose not given, grade 1 and 2, possibly related to drug |  | adverse event incidence | 6%
CNC(=O)c1cc(Oc2ccc(NC(=O)Nc3cc(C(C)(C)C)nn3-c3ccc4ncccc4c3)c(F)c2)ccn1 |  |  | patients | oral, dose not given, cycles 1 and 2, Medium AUC subgroup |  | patients with cardiac disorders | 7%
COc1cccc(OC)c1-c1cc(C(=O)NC2(C(=O)O)C3CC4CC(C3)CC2C4)nn1-c1ccc(C(=O)N(C)CCCN(C)CCCN(C)C(=O)CN2CCN(CC(=O)[O-])CCN(CC(=O)[O-])CCN(CC(=O)[O-])CC2)cc1C(C)C.[177Lu+3] (stereo not shown) |  |  | mouse HT-29 xenograft, small intestine | 24 h post injection, biodistribution |  | tissue uptake | 0.32 %ID/g
CCc1c(-c2ccccc2)c(-c2ccccc2)nn1-c1ccccc1-c1cccc(OCC(=O)O)c1 |  |  | Sprague-Dawley rat, heart homogenate | oral, 10 mg/kg, 4 h |  | concentration | 343 ng/mL and 665 ng/mL
C=C1C(=O)O[C@@H]2C[C@@]3(C)CCCC(=C)[C@@H]3C[C@H]12 | COS-7 |  |  | 30 µM, 24 h, 0.1% DMSO, unit not given | reference: vehicle control | confluence | 0.35 ± 0.1
CCn1cc(C(=O)O)c(=O)c2cc(F)c(N3CCNCC3)cc21 |  | starch gel membrane permeability | Gram-negative envelope surrogate | 200 µM, 90 min, pH 7.4 |  | amount permeated | 4.79 nmol
N#CCNC(=O)c1ccc(-c2ccnc(Nc3ccc(N4CCOCC4)cc3)n2)cc1 |  |  | healthy volunteers, plasma | oral, dose not given, added: ritonavir multiple-dose | reference: compound alone | AUCtau increase | 14%
COc1ccc([C@@H](O)c2cc(-c3ncnc4cc(N5CCOCC5)ccc34)c(F)cc2Cl)nn1 |  |  | locally advanced rectal cancer | oral, 150 mg, added: capecitabine and radiotherapy |  | radiation skin injury TEAE | 33%
COc1ccc([C@@H](O)c2cc(-c3ncnc4cc(N5CCOCC5)ccc34)c(F)cc2Cl)nn1 |  |  | healthy volunteers, plasma | oral, 100 mg, tablet, fed high-fat, median |  | tlag | 0.5 h
O=C(COc1ccc(Cl)cc1)NC12CC(c3nnc([C@H]4C[C@@H](OC(F)(F)F)C4)o3)(C1)C2 |  |  | human both sexes | oral, 260 mg once daily, 14 days |  | postural dizziness participants | 42.9%
COc1ccc2nc([S+]([O-])Cc3ncc(CO)c(OC)c3C)[nH]c2c1 (stereo not shown) |  |  | human, dried plasma spots | 4 h | reference: baseline | R/S enantiomer ratio | 9.93
Cc1cc(-c2nccc3c2ccn3CC(=O)Nc2ccc(-c3cnccn3)cn2)ccn1 |  |  | human | SAD part, single 40 mg dose |  | subjects with any serious TEAE | 0%
Cc1c2oc3c(C)ccc(C(=O)N[C@@H]4C(=O)N[C@H](C(C)C)C(=O)N5CCC[C@H]5C(=O)N(C)CC(=O)N(C)[C@@H](C(C)C)C(=O)O[C@@H]4C)c3nc-2c(C(=O)N[C@@H]2C(=O)N[C@H](C(C)C)C(=O)N3CCC[C@H]3C(=O)N(C)CC(=O)N(C)[C@@H](C(C)C)C(=O)O[C@@H]2C)c(N)c1=O |  | LC-MS | children with cancer, plasma | dose not given, 8 h |  | minimum plasma concentration | 1.2 µg/L
O=S(=O)(O)Oc1cc([C@H]2Oc3cc(O)cc(O)c3C[C@H]2O)ccc1O |  |  | human plasma | mean |  | plasma concentration | 819 nM
Cc1ccc([C@@H]2O[C@H](CO)[C@@H](O)[C@H](O)[C@H]2O)cc1Cc1ccc(-c2ccc(F)cc2)s1 |  |  | Japanese type 2 diabetes patients | 400 mg, day 4, 24 h urine collection | reference: baseline | urinary magnesium excretion change | -3.36 mg
O=C(O)[C@H]1O[C@@H](Oc2c(-c3ccc(O)cc3)oc3cc(O)cc(O)c3c2=O)[C@H](O)[C@@H](O)[C@@H]1O |  |  | human plasma | median |  | plasma concentration | 1020 nM
Cc1cc(C)c(CNC(=O)c2cc(Cl)c3c(c2C)O[C@@](C)([C@H]2CC[C@H](N(C)C)CC2)O3)c(=O)[nH]1 |  |  | human relapsed/refractory NHL | oral, 200 mg once daily, onset day 1 to 14 |  | back pain grade ≥3 | 0%
O=C(O)c1ccccc1O |  |  | human plasma | mean, both sexes |  | plasma concentration | 5900 nM
CNC(=O)c1ccc(-c2cnc3ncc(Cc4ccc5ncccc5c4)n3n2)cc1F |  |  | Japanese patients | oral, 400 mg, grade 3/4 |  | Haematuria dose reduction/interruption | 1%
C[C@H]1CN(C(=O)CC#N)[C@]12CCN(c1ncnc3[nH]ccc13)C2 |  |  | healthy adults, plasma | oral, 12 mg single dose, mean |  | t1/2 | 2.8 h
Cc1ccc(O)c(O)c1 |  |  | human plasma | mean |  | plasma concentration | 5050 nM

Some of these lines once more:
SMILES | target or system | test | system | setting | how to read | measurement | result
C[C@@H](N)C1CCN(S(=O)(=O)c2cccc3cnccc23)CC1 |  |  | healthy volunteers | 25 mg, fasted |  | participants with TEAEs | 16.7%
O=c1oc2c(O)c(O)cc3c(=O)oc4c(O)c(O)cc1c4c23 |  |  | human plasma | mean, both sexes |  | plasma concentration | 138 nM
CN1CCC[C@H](CN2c3ccccc3Sc3ccccc32)C1.Cl |  |  | Wistar rat female, heart | oral, 16 mg/kg |  | Tmax | 6 h
OC[C@H]1O[C@@H](c2ccc(F)c(Cc3cc4ccccc4s3)c2)[C@H](O)[C@@H](O)[C@@H]1O |  |  | Japanese patients, type 1 diabetes | oral, 25 mg/day, onset day 10 | reference: patients | hypoglycaemia-related adverse event | 5%
CC1CCNc2c(C(=O)NC/C=C/S(C)(=O)=O)cccc21 (stereo not shown) |  |  | uninfected mouse, serum | 300 mg/kg |  | serum AST | 107 U/L and 70 U/L
O=c1ccccc(C2CCCO2)c1O (stereo not shown) |  |  | C57BL/6 mouse male, turpentine inflammation anemia, serum | 50 mg/kg/day, 3 h after last dose |  | serum concentration | 3000 nM
CCc1cc2ncc(CN3CCN(c4ccc(C(=O)NC)nc4)CC3)cc2[nH]c1=O |  |  | male rat, blood | oral, 50 mg/kg/day, 4 weeks | reference: vehicle control | Neutrophils count ratio | 0.56
